Assay results pooled from the literature.
Parts stem from different laboratories: compare values within a part only.
Sequence of UniProt Q8N4C8 (whole entry, looked up): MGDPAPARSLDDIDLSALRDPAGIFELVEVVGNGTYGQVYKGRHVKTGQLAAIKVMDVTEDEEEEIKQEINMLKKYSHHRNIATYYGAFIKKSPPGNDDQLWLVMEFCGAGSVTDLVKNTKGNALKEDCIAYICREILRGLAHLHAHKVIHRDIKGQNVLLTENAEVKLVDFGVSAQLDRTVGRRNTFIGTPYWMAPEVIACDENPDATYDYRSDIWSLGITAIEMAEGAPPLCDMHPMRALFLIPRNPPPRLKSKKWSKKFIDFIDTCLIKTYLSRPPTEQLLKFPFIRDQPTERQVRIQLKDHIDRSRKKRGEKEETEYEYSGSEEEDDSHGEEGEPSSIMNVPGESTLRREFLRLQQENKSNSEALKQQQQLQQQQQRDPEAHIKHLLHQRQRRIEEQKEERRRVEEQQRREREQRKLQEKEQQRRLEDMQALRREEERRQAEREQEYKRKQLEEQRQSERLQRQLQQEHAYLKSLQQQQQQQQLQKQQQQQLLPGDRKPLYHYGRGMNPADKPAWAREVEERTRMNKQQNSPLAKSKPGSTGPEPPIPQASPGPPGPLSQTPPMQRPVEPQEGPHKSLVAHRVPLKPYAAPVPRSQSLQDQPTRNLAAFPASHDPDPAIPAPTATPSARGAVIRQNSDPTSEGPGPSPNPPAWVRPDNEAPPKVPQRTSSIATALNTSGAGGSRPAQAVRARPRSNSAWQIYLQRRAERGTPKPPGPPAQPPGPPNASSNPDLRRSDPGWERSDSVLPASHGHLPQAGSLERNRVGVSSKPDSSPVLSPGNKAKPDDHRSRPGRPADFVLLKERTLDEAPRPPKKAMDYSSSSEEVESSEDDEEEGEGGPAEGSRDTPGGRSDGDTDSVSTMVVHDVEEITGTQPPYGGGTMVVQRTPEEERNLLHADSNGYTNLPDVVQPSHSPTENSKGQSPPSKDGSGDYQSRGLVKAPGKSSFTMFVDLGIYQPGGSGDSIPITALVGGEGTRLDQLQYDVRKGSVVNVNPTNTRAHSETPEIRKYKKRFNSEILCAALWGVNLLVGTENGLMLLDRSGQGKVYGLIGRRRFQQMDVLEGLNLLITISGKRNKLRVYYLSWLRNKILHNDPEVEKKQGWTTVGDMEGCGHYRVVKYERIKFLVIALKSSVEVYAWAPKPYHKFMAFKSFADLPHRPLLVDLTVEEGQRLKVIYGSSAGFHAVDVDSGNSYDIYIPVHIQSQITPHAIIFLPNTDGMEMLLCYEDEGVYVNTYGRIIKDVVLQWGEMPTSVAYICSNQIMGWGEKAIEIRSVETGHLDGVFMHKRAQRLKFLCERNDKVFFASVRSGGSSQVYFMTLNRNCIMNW
Sequence of UniProt Q96LA9 (whole entry, looked up): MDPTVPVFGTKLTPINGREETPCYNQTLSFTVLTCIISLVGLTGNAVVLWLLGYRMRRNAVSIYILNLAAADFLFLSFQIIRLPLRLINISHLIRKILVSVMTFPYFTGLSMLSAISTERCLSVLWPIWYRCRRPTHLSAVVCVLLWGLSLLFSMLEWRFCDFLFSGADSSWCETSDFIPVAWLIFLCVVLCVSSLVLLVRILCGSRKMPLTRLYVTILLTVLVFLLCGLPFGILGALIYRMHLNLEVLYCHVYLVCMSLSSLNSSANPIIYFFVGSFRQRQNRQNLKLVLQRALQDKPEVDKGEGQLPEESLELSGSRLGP
Sequence of UniProt P47898 (whole entry, looked up): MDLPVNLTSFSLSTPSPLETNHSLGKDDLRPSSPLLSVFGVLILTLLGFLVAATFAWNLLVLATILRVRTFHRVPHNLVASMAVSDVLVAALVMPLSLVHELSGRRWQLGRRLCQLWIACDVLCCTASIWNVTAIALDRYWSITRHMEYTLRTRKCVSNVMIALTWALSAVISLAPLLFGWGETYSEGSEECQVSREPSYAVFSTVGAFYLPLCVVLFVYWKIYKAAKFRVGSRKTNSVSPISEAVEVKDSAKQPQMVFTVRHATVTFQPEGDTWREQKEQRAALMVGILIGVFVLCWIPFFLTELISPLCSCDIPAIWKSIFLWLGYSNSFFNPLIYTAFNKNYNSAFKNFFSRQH
Sequence of UniProt P47871 (whole entry, looked up): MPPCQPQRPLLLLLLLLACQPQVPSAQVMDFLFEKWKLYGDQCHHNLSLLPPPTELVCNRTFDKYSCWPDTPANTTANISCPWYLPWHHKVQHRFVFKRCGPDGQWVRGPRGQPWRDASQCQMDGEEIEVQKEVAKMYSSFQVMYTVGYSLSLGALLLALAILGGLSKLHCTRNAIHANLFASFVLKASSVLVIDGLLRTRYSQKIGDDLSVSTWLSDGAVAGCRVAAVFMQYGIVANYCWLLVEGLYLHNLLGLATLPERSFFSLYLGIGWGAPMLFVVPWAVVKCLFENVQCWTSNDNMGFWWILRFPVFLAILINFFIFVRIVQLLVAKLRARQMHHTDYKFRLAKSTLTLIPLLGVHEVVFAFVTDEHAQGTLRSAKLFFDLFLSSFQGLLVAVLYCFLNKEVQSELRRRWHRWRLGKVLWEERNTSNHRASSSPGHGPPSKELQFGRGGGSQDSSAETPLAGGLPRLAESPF
Sequence of UniProt P42336 (whole entry, looked up): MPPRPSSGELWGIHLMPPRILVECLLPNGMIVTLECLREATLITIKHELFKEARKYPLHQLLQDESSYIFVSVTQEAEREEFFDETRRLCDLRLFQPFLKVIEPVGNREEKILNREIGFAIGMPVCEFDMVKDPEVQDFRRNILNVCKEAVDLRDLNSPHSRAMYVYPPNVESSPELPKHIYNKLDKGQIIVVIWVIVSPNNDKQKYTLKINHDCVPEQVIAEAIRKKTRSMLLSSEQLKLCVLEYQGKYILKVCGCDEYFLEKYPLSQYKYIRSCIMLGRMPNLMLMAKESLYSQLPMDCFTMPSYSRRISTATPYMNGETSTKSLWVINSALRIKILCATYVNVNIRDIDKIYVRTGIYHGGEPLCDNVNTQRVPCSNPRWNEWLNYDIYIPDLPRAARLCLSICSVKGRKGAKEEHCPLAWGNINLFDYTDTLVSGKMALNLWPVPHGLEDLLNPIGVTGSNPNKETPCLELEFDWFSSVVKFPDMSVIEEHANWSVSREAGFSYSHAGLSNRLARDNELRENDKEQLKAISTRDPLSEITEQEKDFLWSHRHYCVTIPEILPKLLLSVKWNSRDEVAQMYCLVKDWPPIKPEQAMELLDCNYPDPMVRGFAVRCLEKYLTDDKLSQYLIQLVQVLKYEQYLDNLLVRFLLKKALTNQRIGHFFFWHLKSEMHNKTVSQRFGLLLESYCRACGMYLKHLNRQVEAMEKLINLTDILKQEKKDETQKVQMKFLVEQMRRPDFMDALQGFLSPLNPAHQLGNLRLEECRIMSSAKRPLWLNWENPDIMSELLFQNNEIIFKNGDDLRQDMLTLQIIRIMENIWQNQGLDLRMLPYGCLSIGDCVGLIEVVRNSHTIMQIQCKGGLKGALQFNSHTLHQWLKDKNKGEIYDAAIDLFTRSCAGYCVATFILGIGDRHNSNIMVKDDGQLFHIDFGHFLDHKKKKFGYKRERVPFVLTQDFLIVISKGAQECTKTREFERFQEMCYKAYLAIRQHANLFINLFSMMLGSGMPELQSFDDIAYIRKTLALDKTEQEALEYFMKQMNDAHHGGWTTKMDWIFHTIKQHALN
Sequence of UniProt P25024 (whole entry, looked up): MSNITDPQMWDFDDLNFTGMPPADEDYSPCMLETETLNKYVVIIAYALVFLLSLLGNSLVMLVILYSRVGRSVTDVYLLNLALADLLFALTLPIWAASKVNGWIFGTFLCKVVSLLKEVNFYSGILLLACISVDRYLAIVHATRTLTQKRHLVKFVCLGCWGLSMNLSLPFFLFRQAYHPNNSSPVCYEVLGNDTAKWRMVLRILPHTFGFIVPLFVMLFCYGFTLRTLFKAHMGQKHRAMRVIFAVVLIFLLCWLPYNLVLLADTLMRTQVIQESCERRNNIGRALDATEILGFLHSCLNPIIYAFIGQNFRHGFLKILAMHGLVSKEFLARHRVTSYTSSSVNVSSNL
Sequence of UniProt P46734 (whole entry, looked up): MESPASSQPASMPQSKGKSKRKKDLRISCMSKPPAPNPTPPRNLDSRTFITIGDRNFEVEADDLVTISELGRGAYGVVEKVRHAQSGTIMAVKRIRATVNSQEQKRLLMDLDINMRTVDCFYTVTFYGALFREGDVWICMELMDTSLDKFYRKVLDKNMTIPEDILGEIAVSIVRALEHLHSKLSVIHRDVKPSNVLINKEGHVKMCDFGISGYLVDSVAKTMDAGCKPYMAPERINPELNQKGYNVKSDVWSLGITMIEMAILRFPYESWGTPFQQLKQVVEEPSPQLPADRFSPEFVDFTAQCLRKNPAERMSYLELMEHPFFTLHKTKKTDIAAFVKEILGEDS
Sequence of UniProt Q8IY84 (whole entry, looked up): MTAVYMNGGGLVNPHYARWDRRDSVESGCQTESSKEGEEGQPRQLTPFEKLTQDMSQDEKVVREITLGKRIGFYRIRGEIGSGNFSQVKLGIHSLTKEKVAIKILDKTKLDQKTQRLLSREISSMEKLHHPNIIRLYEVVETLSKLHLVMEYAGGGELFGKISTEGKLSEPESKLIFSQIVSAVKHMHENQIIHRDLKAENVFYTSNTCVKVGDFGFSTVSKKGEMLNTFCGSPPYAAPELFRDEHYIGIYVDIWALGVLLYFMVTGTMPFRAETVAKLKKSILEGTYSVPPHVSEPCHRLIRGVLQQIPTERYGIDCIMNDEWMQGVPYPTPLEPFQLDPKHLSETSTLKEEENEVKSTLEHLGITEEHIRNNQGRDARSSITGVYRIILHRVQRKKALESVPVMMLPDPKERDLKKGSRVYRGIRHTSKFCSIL
Sequence of UniProt P30968 (whole entry, looked up): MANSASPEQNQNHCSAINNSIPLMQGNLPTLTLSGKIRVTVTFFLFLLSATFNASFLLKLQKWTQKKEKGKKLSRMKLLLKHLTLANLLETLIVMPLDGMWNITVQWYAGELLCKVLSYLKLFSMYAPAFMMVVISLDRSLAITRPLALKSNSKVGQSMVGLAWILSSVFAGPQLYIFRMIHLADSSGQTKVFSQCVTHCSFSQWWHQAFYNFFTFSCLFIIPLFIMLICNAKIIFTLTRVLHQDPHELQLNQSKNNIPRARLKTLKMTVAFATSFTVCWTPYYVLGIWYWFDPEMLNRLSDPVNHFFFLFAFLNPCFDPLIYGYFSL

Sample 1
Technique: PRP chromatography estimate
Matrix: 1,9-decadiene/PBS
pH: 7.4
SMILES	logD
CC(C)C[C@@H]1NC(=O)[C@H](CC(C)C)NC(=O)[C@H](CC(C)C)NC(=O)[C@H](CC(C)C)NC(=O)[C@H](C(C)C)NC(=O)[C@H](C)NC(=O)[C@H](C)NC1=O	-0.87
CC(C)C[C@@H]1NC(=O)[C@H](CC(C)C)NC(=O)[C@@H](CC(C)C)NC(=O)[C@@H](CC(C)C)NC(=O)[C@@H](Cc2cscn2)NC(=O)[C@H](CC(C)C)NC(=O)[C@@H](CC(C)C)NC1=O	1.62
CC(C)C[C@@H]1NC(=O)[C@H](C)NC(=O)[C@@H](CC(C)C)NC(=O)[C@H](C(C)C)NC(=O)[C@H](CC(C)C)NC(=O)[C@@H](CC(C)C)NC(=O)[C@H](CC(C)C)NC1=O	0.87
CC(C)C[C@@H]1NC(=O)[C@H](CC(C)C)NC(=O)[C@@H](C(C)C)NC(=O)[C@H](C(C)C)NC(=O)[C@@H](Cc2cscn2)NC(=O)[C@H](Cc2cscn2)NC(=O)[C@H](CCC(=O)N2CCCC2)NC1=O	-1.81
CC(C)C[C@@H]1NC(=O)[C@H](CC(C)C)NC(=O)[C@H](CC(C)C)NC(=O)[C@H](CC(C)C)NC(=O)[C@@H](CCC(=O)N2CCCC2)NC(=O)[C@H](C)NC(=O)[C@H](C)NC1=O	-2.02
CC(C)C[C@@H]1NC(=O)[C@H](CC(C)C)NC(=O)[C@@H](C(C)C)NC(=O)[C@H](C)NC(=O)[C@H](C(C)C)NC(=O)[C@H](C)NC(=O)[C@H](C)NC1=O	-2.96
CC(C)C[C@@H]1NC(=O)[C@H](CC(C)C)NC(=O)[C@@H](C(C)C)NC(=O)[C@H](C)NC(=O)[C@@H](Cc2cscn2)NC(=O)[C@@H](CC(C)C)NC(=O)[C@H](C)NC1=O	-1.77
CC(C)C[C@@H]1NC(=O)[C@H](C(C)C)NC(=O)[C@H](C)NC(=O)[C@H](CCC(=O)N2CCCC2)NC(=O)[C@@H](CCC(=O)N2CCCC2)NC(=O)[C@H](CC(C)C)NC(=O)[C@@H](CC(C)C)NC1=O	-2.43
CC(C)C[C@@H]1NC(=O)[C@@H](C)NC(=O)[C@H](CCC(=O)N2CCCC2)NC(=O)[C@H](C)NC(=O)[C@H](C(C)C)NC(=O)[C@H](CC(C)C)NC(=O)[C@@H](CC(C)C)NC1=O	-2.32
CC(C)C[C@@H]1NC(=O)[C@H](CC(C)C)NC(=O)[C@@H](CC(C)C)NC(=O)[C@@H](CC(C)C)NC(=O)[C@H](C)NC(=O)[C@H](CC(C)C)NC(=O)[C@@H](CC(C)C)NC1=O	1.61

Sample 2
Target: Phosphorylase b kinase gamma catalytic chain, skeletal muscle/heart isoform (PHKG1, Homo sapiens, UniProt Q16816)
Effect on: enzyme activity
Action: inhibitor
Tested at: 0.5 µM
Reference: control
Residues (Q16816 1-387): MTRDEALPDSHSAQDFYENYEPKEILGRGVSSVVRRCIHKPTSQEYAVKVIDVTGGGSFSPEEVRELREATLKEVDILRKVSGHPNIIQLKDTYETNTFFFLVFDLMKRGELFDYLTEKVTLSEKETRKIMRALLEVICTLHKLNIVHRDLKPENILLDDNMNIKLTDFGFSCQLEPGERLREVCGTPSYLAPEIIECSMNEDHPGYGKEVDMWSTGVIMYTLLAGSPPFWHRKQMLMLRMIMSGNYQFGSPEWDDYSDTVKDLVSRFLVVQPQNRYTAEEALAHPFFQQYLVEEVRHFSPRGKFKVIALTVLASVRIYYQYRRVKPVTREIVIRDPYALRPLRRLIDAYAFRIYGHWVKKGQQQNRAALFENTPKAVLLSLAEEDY
SMILES	remaining activity
Nc1cccc(-c2cc3c(Oc4cccc(O)c4)ncnc3[nH]2)c1	81.5%
O=C(NC(NC(=S)Nc1ccc(F)c([N+](=O)[O-])c1)C(Cl)(Cl)Cl)C(c1ccccc1)c1ccccc1 (centres unmarked)	104%
O=c1cc(-c2cccc3c2Sc2ccccc2S3)oc(N2CCOCC2)c1	106%
Cc1cc2ncc(-c3ccccc3)nc2cc1C	97.4%
Ic1cccc(CSc2nnc(-c3ccncc3)o2)c1	105%
c1ccc(-c2[nH]ncc2-c2ccnc3ccccc23)nc1	94.2%
CCN(CC)CCNC(=O)c1c(C)[nH]c(/C=C2\C(=O)Nc3ccc(F)cc32)c1C	5.12%
N#C/C(=C\c1ccc(O)c(O)c1)C(=O)NCc1ccccc1	92.6%
C[C@@H]1CCN(C(=O)CC#N)C[C@@H]1N(C)c1ncnc2[nH]ccc12	90%
c1ccc(-c2cnc(Nc3ccc(OCCN4CCCC4)cc3)s2)cc1	45.5%
COc1cc2ncnc(Nc3ccc(O)c(Br)c3)c2cc1OC	71.9%
Cc1nc2cc3nc(-c4cccs4)cnc3cc2n1C	98.2%
N#Cc1c(NC(=O)c2cccc3ccccc23)sc2c1CCCC2	93.8%
O=C(Nc1cccc(Nc2nccc(Nc3cccc(C(F)(F)F)c3)n2)c1)C1CC1	98.3%
COc1cc2ncnc(Nc3cccc(Cl)c3)c2cc1OC	88.9%
O=C1c2ccccc2-c2n[nH]c3cccc1c23	65.8%
CN(C)C[C@H]1CCn2c(c(C3=C(c4cn(C)c5ccccc45)C(=O)NC3=O)c3ccccc32)C1	78.4%
CCOc1nc(NC(=O)Cc2cc(OC)ccc2OC)cc(N)c1C#N	94.2%
COc1cc2c(cc1OC)-c1[nH]nc(Nc3cccc(F)c3)c1C2	89%
CCN(CC)C(=O)c1ccc(Nc2nc(OCC3CCCCC3)c3[nH]cnc3n2)cc1	85.9%
Cc1cn(-c2cc(NC(=O)c3ccc(C)c(Nc4nccc(-c5cccnc5)n4)c3)cc(C(F)(F)F)c2)cn1	91%
CN([C@@H](Cc1ccc(OS(=O)(=O)c2cccc3cnccc23)cc1)C(=O)N1CCN(c2ccccc2)CC1)S(=O)(=O)c1cccc2cnccc12	93.4%
O=C1C(Cl)=C(N2C(=O)CCC2=O)C(=O)c2ccccc21	96.5%

Sample 3
Structure (SMILES): Cc1nccc(COC(=O)N2C[C@@H]3[C@@H](CNC(=O)c4ccc5[nH]nnc5c4)[C@@H]3C2)n1
Effect on: cell-free assay
Technique: competition with immobilised ligand
Tested at: 1 µM
target	remaining binding
Serine/threonine-protein kinase NIM1 (NIM1K, Homo sapiens, UniProt Q8IY84)	87%
Serine/threonine-protein kinase ULK3 (ULK3, Homo sapiens, UniProt Q6PHR2)	100%
Phosphatidylinositol 4,5-bisphosphate 3-kinase catalytic subunit alpha isoform (PIK3CA, Homo sapiens, UniProt P42336)	92%
Phosphorylase b kinase gamma catalytic chain, skeletal muscle/heart isoform (PHKG1, Homo sapiens, UniProt Q16816)	100%
Tyrosine-protein kinase JAK2, JH1 (JAK2, Homo sapiens, UniProt O60674)	93%
Misshapen-like kinase 1 (MINK1, Homo sapiens, UniProt Q8N4C8)	100%
Ribosomal protein S6 kinase beta-1 (RPS6KB1, Homo sapiens, UniProt P23443)	84%
G protein-coupled receptor kinase 4 (GRK4, Homo sapiens, UniProt P32298)	100%
Serine/threonine-protein kinase OSR1 (OXSR1, Homo sapiens, UniProt O95747)	100%
Serine/threonine-protein kinase SIK3 (SIK3, Homo sapiens, UniProt Q9Y2K2)	100%
Macrophage-stimulating protein receptor (MST1R, Homo sapiens, UniProt Q04912)	100%
Dual specificity mitogen-activated protein kinase kinase 3 (MAP2K3, Homo sapiens, UniProt P46734)	84%
Cyclin-dependent kinase 8 (CDK8, Homo sapiens, UniProt P49336)	75%

Sample 4
Structure (SMILES): N=C(N)NC(=O)c1cnn(-c2cccc3ncccc23)c1C1CC1
Effect on: β-arrestin recruitment
Action: agonist
Technique: PRESTO-Tango
Tested at: 10 µM
Reference: untreated
target	fold over basal
5-hydroxytryptamine receptor 1B (HTR1B, Homo sapiens, UniProt P28222)	1.19
C-X-C chemokine receptor type 1 (CXCR1, Homo sapiens, UniProt P25024)	1.2
Muscarinic acetylcholine receptor M2 (CHRM2, Homo sapiens, UniProt P08172)	1.01
Neuropeptide Y receptor type 1 (NPY1R, Homo sapiens, UniProt P25929)	1
D(1A) dopamine receptor (DRD1, Homo sapiens, UniProt P21728)	0.81
Calcitonin receptor, isoform b (CALCR, Homo sapiens, UniProt P30988)	0.93
Gonadotropin-releasing hormone receptor (GNRHR, Homo sapiens, UniProt P30968)	1 fold
G-protein coupled bile acid receptor 1 (GPBAR1, Homo sapiens, UniProt Q8TDU6)	1.05 fold
5-hydroxytryptamine receptor 5A (HTR5A, Homo sapiens, UniProt P47898)	0.98
Opsin-3 (OPN3, Homo sapiens, UniProt Q9H1Y3)	1.26
Mas-related G-protein coupled receptor member X4 (Homo sapiens, UniProt Q96LA9)	1.09
Glucagon receptor (GCGR, Homo sapiens, UniProt P47871)	0.98 fold
Probable G-protein coupled receptor 162 (GPR162, Homo sapiens, UniProt Q16538)	0.93

Excerpt of the above (sample 3):
target	remaining binding
Phosphatidylinositol 4,5-bisphosphate 3-kinase catalytic subunit alpha isoform (PIK3CA, Homo sapiens, UniProt P42336)	92%
Phosphorylase b kinase gamma catalytic chain, skeletal muscle/heart isoform (PHKG1, Homo sapiens, UniProt Q16816)	100%
Tyrosine-protein kinase JAK2, JH1 (JAK2, Homo sapiens, UniProt O60674)	93%
Misshapen-like kinase 1 (MINK1, Homo sapiens, UniProt Q8N4C8)	100%
Ribosomal protein S6 kinase beta-1 (RPS6KB1, Homo sapiens, UniProt P23443)	84%
G protein-coupled receptor kinase 4 (GRK4, Homo sapiens, UniProt P32298)	100%
